{"data": "Published values pooled from the literature", "note": "Numbered parts are unrelated; each lists some results of a single study. Substitutions count along the parent as printed."}
{"data": "Block 1", "target": "ABI1, truncated, D143A, DHFR fusion (Arabidopsis thaliana)", "technique": "DHFR PCA, deep sequencing", "matrix": "yeast", "notes": "methotrexate growth selection, single substitutions", "together with": "(+)-ABA 0.39 µM", "relative to": "wild-type fitted maximum", "reading": "higher = stronger binding", "parent": "PYL1, truncated, DHFR fusion (Arabidopsis thaliana); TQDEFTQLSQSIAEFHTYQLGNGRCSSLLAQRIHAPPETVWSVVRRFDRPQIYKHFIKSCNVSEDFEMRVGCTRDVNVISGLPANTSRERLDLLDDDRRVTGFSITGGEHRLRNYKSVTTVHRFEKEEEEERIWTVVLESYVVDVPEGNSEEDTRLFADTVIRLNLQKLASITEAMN; partner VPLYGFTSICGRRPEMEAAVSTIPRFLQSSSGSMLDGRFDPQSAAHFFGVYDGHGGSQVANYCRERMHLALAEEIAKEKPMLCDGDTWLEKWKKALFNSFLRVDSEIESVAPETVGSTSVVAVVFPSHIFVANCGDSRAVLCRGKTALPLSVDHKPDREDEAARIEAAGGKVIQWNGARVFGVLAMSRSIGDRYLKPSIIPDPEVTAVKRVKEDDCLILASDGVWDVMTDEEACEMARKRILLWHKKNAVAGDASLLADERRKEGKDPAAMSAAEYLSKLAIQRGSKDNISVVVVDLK"}
{"Substitution": "S150F", "relative binding score [%]": -34.1}
{"Substitution": "G102Q", "relative binding score [%]": -8.68}
{"Substitution": "F15V", "relative binding score [%]": -2.16}
{"Substitution": "S104C", "relative binding score [%]": -2.22}
{"Substitution": "E109I", "relative binding score [%]": 3.84}
{"Substitution": "S27L", "relative binding score [%]": -0.927}
{"Substitution": "T135H", "relative binding score [%]": -0.478}
{"Substitution": "T135P", "relative binding score [%]": 2.46}
{"Substitution": "Q2A", "relative binding score [%]": 56.2}
{"Substitution": "R99H", "relative binding score [%]": 47.8}
{"Substitution": "N61I", "relative binding score [%]": 58}
{"Substitution": "A35N", "relative binding score [%]": -8.57}
{"Substitution": "T1V", "relative binding score [%]": 56.1}
{"Substitution": "E128R", "relative binding score [%]": 21.7}
{"data": "Block 2", "target": "CCNF, cyclin fold, Cln2 fusion (human)", "technique": "yeast growth competition, sequencing", "matrix": "yeast", "notes": "strong parent motif", "relative to": "not given", "reading": "higher = stronger binding", "parent": "GMNC docking peptide (human); KNAKRNLSSEFAN; partner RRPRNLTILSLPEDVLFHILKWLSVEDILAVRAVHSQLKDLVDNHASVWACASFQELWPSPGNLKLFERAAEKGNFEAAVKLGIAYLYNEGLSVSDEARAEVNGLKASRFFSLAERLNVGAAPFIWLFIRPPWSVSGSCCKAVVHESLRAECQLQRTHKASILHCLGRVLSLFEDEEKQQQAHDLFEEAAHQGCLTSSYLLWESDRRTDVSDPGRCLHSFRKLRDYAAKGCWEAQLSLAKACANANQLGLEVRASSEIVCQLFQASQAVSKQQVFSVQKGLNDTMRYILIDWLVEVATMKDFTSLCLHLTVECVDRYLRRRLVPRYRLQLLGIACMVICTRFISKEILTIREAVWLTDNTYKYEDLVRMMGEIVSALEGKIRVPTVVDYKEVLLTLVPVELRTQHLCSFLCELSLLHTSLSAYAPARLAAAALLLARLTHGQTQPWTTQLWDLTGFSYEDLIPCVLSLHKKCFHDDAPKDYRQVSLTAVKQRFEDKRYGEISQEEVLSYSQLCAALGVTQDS"}
{"Substitution": "KNAKRNLSSEAAN [F11A]", "normalised enrichment score": 0.399}
{"Substitution": "KNAKRDLSSEFAN [N6D]", "normalised enrichment score": 0.138}
{"Substitution": "KNAKRNLSSLFAN [E10L]", "normalised enrichment score": 0.952}
{"Substitution": "KNAKRNLRSEFAN [S8R]", "normalised enrichment score": 0.39}
{"Substitution": "KNAKRNLSSEWAN [F11W]", "normalised enrichment score": 0.521}
{"Substitution": "KVAKRNLSSEFAN [N2V]", "normalised enrichment score": 0.327}
{"Substitution": "KNAKRNLSYEFAN [S9Y]", "normalised enrichment score": 1.98}
{"Substitution": "KNAKRNLSSELAN [F11L]", "normalised enrichment score": 1}
{"Substitution": "KNAKRNLSSEQAN [F11Q]", "normalised enrichment score": 0.641}
{"Substitution": "KNAKRNRSSEFAN [L7R]", "normalised enrichment score": -0.0182}
{"Substitution": "KNAKRNLSSEMAN [F11M]", "normalised enrichment score": 0.895}
{"Substitution": "KNAKRNLSSEFTN [A12T]", "normalised enrichment score": 0.939}
{"Substitution": "KDAKRNLSSEFAN [N2D]", "normalised enrichment score": 0.469}
{"Substitution": "KNAKRNLSCEFAN [S9C]", "normalised enrichment score": 0.813}
{"Substitution": "KNAKRNLSSHFAN [E10H]", "normalised enrichment score": 0.407}
{"Substitution": "KNAKRSLSSEFAN [N6S]", "normalised enrichment score": 1.73}
{"data": "Block 3", "target": "UBE2J2 UBC core domain (UniProt Q8N2K1)", "technique": "yeast two-hybrid", "matrix": "yeast", "notes": "mostly zero background", "relative to": "not given", "reading": "higher = stronger interaction", "B1": "VPS41 RING domain (UniProt P49754); chain KGVLVDEENICESCLSPILPSDAAKPFSVVVFHCRHMFHKECLPMPSMNSAAQFCNICSAKNRGPGSAI", "B2": "NEURL1 RING domain (UniProt O76050); chain VTPGLGQWSDECTICYEHAVDTVIYTCGHMCLCYACGLRLKKALHACCPICRRPIKDIIKT", "B3": "TRIM5 RING domain (UniProt Q9C035); chain ILVNVKEEVTCPICLELLTQPLSLDCGHSFCQACLTANHKKSMLDKGESSCPVCRISYQPENIRP", "B4": "MKRN1 RING domain (UniProt Q9UHC7); chain FAVQRSKDMVCGICMEVVYEKANPSERRFGILSNCNHTYCLKCIRKWRSAKQFESKIIKSCPECRITSNFVIPSE", "B5": "RNF208 RING domain (UniProt Q9H0X6); chain SSAAAGEPLECPTCGHSYNVTQRRPRVLSCLHSVCEQCLQILYESCPKYKFISCPTCRRETVLFTDYG", "B6": "RC3H1 RING domain (UniProt Q5TC82); chain QAPQWTDFLSCPICTQTFDETIRKPISLGCGHTVCKMCLNKLHRKACPFDQTTINTDIELL", "B7": "TRIM13 RING domain (UniProt O60858); chain MELLEEDLTCPICCSLFDDPRVLPCSHNFCKKCLEGILEGSVRNSLWRPAPFKCPTCRKETSATGINS", "B8": "SH3RF2 RING domain (UniProt Q8TEC5); chain DDLTLLDLLECPVCFEKLDVTAKVLPCQHTFCKPCLQRVFKAHKELRCPECRTPVFSNIEAL", "B9": "TRIM5 RING domain (UniProt Q9C035); chain LREVKLSPEGQKVDHCARHGEKLLLFCQEDGKVICWLCERSQEHRGHHTFLTEEVAREYQVKL", "Construct (chain)": "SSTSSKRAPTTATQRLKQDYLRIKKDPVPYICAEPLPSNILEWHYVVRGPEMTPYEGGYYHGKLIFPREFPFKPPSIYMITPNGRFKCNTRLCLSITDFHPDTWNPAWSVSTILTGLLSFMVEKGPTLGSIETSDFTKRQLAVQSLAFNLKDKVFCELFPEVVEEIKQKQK"}
{"Sequence": "B1 (VPS41 RING domain)", "lacZ reporter activity": 0}
{"Sequence": "QVDKAVFHMQSVKCLKCQEQKRAVLPCQHAALCELCAEGSECPICQPGRAHTLQS (UNK RING domain (UniProt Q9C0B0))", "lacZ reporter activity": 0}
{"Sequence": "B2 (NEURL1 RING domain)", "lacZ reporter activity": 13100}
{"Sequence": "B3 (TRIM5 RING domain)", "lacZ reporter activity": 0}
{"Sequence": "GAAPGPEAAECLVCSELALLVLFSPCQHRTVCEECARRMKKCIRCQVVVSKKLRPD (MIB2 RING domain (UniProt Q96AX9))", "lacZ reporter activity": 9660}
{"Sequence": "B4 (MKRN1 RING domain)", "lacZ reporter activity": 0}
{"Sequence": "B5 (RNF208 RING domain)", "lacZ reporter activity": 0}
{"Sequence": "B6 (RC3H1 RING domain)", "lacZ reporter activity": 0}
{"Sequence": "B7 (TRIM13 RING domain)", "lacZ reporter activity": 0}
{"Sequence": "B8 (SH3RF2 RING domain)", "lacZ reporter activity": 0}
{"Sequence": "B9 (TRIM5 RING domain)", "lacZ reporter activity": 0}
{"data": "Block 4", "target": "Ras GTPase-activating protein-binding protein 1, full length (G3BP1, Homo sapiens, UniProt Q13283)", "technique": "RNA Bind-n-Seq", "molecule type": "RNA", "matrix": "in vitro", "concentration": "200 nM", "notes": "whole 134-nt RNA, ends assumed", "together with": "150 mM LiCl", "relative to": "input library", "reading": "higher = stronger binding", "each molecule": "7-deaza-guanosine replaces G", "all sequences stand within": "GGGAGUUCUACAGUCCGACGAUC … UGGAAUUCUCGGGUGUCAAGG", "chain of UniProt Q13283 (whole entry, looked up)": "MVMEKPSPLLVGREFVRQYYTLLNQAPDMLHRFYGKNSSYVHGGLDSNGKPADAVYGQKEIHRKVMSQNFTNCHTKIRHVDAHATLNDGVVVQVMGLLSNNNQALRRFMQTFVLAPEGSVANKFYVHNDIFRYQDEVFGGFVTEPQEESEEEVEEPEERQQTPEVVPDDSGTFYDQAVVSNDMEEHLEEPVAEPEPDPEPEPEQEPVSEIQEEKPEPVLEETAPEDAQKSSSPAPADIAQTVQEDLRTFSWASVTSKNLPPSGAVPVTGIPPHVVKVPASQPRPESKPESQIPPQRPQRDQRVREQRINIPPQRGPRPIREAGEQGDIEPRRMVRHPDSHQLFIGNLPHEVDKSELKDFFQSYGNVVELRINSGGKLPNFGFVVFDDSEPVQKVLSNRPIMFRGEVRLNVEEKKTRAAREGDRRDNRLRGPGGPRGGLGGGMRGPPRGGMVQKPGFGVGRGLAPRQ"}
{"Oligonucleotide": "ACCAUGCAGGUGGGCAUCUUUGGGAAGUGGGGCAAGGGGGGGAUAGGGAGGGGGGUAACACUUUGGGAACGGGUGGUCCCAGGUCGUUUC", "log2 enrichment": 0.168}
{"Oligonucleotide": "CUCAAGUCCUGUGCUACACAUCGUAUGUACCGAAUCGGAGGUUUGGAAAAAGGAAAGUAUUAUGUUACGCCGUUCGGAUCUGCACUUCCA", "log2 enrichment": -0.655}
{"Oligonucleotide": "GUCCUGUGCUACACAUCGUAUGUACCGAAUCAAACCCCCCCAAACCCCCAAAUUUAAAAAAGUAUUAUGUUACGCCGUUCGGAUCUGCAC", "log2 enrichment": 0.275}
{"Oligonucleotide": "UGGCCCUGGUGGCAUGCGGGGAGGAAGAGGUGGCCUCAUGGAUCGUGCUGGUCCCGGUGGAAUGUUCAGAGGUGGCCGUGGUGGAGACAG", "log2 enrichment": 0.143}
{"Oligonucleotide": "GCAGGAAGUAAAAACAAAUGGAGAUGCUUCGGAUAGUGGCAGGGGUGGGGGUUGCUAAGGAAAGGGUGGGAUGGGAGUGGGUAAAGAGUU", "log2 enrichment": 0.0976}
{"Oligonucleotide": "CACAGACAACACGGACCCACACAGACACAGAGGGAAGGGGUUGGGAUGGGGACAGGGUGCACAGCAGGGCGGGGUAGGACCCCAGCCCCU", "log2 enrichment": -0.978}
{"Oligonucleotide": "UGGGAUGUGGAUUUUGUUUAUUUUUUUAGCUCAUUUCCAGGGGUGGGAAUUUUUUUUUAAUAUGUGUCAUGAAUAAAGUUGUUUUUGAAA", "log2 enrichment": 0.492}
{"Oligonucleotide": "UCCUCAAGUCCUGUGCUACACAUCGUAUGUACCGAAUCGGUGGGGUGGGUGGAAAGUAUUAUGUUACGCCGUUCGGAUCUGCACUUCCAG", "log2 enrichment": 0.474}
{"note": "A few entries again (block 1):"}
{"Substitution": "E109I", "relative binding score [%]": 3.84}
{"Substitution": "S27L", "relative binding score [%]": -0.927}
{"Substitution": "T135H", "relative binding score [%]": -0.478}
{"Substitution": "T135P", "relative binding score [%]": 2.46}
{"Substitution": "Q2A", "relative binding score [%]": 56.2}
{"Substitution": "R99H", "relative binding score [%]": 47.8}
{"Substitution": "N61I", "relative binding score [%]": 58}
